Measurements collected from several papers.
Each numbered part is a random draw from the data of one study; scales do not carry over between parts.

Block 1
Target: Sal-like protein 4, full length isoform A (SALL4, Homo sapiens, UniProt Q9UJQ4, residues 1-1053)
UniProt Q9UJQ4, sequence (whole entry, looked up): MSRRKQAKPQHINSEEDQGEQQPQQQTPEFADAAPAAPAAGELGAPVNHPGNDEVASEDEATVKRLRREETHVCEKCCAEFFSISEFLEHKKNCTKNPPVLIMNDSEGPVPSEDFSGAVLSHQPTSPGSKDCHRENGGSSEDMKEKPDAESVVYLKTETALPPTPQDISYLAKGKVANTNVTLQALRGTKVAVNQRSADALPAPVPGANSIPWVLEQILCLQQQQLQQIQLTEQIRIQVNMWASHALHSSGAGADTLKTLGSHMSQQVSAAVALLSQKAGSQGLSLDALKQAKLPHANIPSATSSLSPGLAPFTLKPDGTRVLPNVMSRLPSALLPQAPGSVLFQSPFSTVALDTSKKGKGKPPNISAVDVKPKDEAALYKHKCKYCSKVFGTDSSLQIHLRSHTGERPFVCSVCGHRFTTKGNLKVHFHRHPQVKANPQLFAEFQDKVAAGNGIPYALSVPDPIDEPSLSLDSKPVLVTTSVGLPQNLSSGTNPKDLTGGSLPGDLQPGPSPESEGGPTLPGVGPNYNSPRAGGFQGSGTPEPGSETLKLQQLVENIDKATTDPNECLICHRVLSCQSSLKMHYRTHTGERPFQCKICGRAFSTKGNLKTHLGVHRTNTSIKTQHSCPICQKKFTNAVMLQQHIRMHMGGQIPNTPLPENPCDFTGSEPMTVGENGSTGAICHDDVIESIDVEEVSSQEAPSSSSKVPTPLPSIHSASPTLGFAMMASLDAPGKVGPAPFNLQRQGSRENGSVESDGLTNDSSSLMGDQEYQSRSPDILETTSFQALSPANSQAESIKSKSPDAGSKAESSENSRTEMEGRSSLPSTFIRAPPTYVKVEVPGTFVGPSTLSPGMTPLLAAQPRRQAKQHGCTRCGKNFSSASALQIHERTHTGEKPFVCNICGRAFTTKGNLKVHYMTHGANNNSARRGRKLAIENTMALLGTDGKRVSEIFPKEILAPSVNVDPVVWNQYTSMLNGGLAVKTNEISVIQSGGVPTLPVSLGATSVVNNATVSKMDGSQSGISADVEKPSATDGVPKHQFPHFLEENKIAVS
Technique: universal PBM
Form: double-stranded DNA, one strand shown
Matrix: in vitro
Concentration: 600 nM
Notes: 8-mer, flanks averaged, mean of replicates
Reading: higher = stronger binding
`AAGGGGGC` gave an E-score of -0.27.
For `AAGACGGG`, the E-score was -0.293.
The E-score of `ATTAAGAC` is reported as 0.233.
`AAGAATGT` gave an E-score of 0.202.
With `ACATCCAT` the E-score was 0.149.
For `CCGACCAA`, the E-score was -0.185.
For `CCAATAAA`, the E-score was 0.251.
`CGAATTAC` gave an E-score of 0.0762.
With `AAGAGGGA` the E-score was 0.0708.
`AGCATCCA` gave an E-score of -0.126.
`ACCTAATC` gave an E-score of 0.144.
For `GCGCGGTA`, the E-score was -0.221.
For `ATAAAGCC`, the E-score was 0.0885.
`ACTATACT` gave an E-score of 0.244.
The E-score of `TGGCACCA` is reported as -0.225.
`CACTGCTG` has an E-score of -0.195.
`CCCGTGTA` gave an E-score of -0.14.
`GCTCATCC` gave an E-score of -0.242.
`ACTAAGGA` has an E-score of 0.0874.
With `CCCCCTGC` the E-score was -0.308.
`ACTTTAGG` has an E-score of 0.0836.

Block 2
Target: Fragile X messenger ribonucleoprotein 1, C-terminal low-complexity region (Fmr1, Mus musculus, UniProt P35922)
Technique: RNA Bind-n-Seq
Form: RNA
Matrix: in vitro
Concentration: 200 nM
Notes: whole 134-nt RNA, ends assumed
With: 150 mM LiCl
Relative to: input library
Reading: higher = stronger binding
Each molecule: 7-deaza-guanosine replaces G
The log2 enrichment of `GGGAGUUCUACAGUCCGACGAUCAGUCCUGUGCUACACAUCGUAUGUACCGAAUCGGUUUUUUUGGAAAAAAAGGAAAGGAAAGUAUUAUGUUACGCCGUUCGGAUCUGCACUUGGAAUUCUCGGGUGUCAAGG` is reported as -3.45.
The log2 enrichment of `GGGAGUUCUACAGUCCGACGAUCACCAUGCAGGUGGUCAUCUUUGGGAAGUGGGGCAAGGGGGGGAUAGGGAGGGGGGUAACACUUUGGGAACAGGUGGUCCCAGGUCGUUUCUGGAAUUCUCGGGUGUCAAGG` is reported as 1.33.
With `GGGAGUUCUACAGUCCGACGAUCUAACUUUAGAGGAGGAUCUGAUGGAUAUGGCAGUGGACGUGGAUUUGGGGAUGGUUAUAAUGGGUAUGGAGGAGGACCUGGAGGUGGCAAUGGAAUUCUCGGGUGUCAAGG` the log2 enrichment was 1.38.
`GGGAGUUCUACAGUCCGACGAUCCAAGUCCUGUGCUACACAUCGUAUGUACCGAAUCGGGUGGGAAAGGGAAAAAGGGAAAGUAUUAUGUUACGCCGUUCGGAUCUGCACUUCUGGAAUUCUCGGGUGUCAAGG` gave a log2 enrichment of -0.303.
`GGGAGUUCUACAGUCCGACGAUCGCAGGAAGUAAAAACAAAUGGAAAUGCUUCGGAUAGUGGCAGGGGUGGGGGUUGCUAAGUAAAGGGUGGGAUGGGAGUGGGUAAAGAGUUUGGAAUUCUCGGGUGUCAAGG` gave a log2 enrichment of 1.73.
The log2 enrichment of `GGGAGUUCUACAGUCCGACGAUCUGGCCCUGGUGGCAUGCGGGGAGGAAGAGGUGGCCUCAUGGAUCGAGGUGGUCCCGGUGGAAUGUUCAGAGGUGGCCGUGGUGGAGACAGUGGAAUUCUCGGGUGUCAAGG` is reported as -0.358.
`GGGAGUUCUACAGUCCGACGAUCUGUGCUACACAUCGUAUGUACCGAAUCGGGCCCCCCCGGGCCCCCCCGGGGCCCCCCCGGGGAAAGUAUUAUGUUACGCCGUUCGGAUCUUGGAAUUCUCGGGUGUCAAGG` gave a log2 enrichment of -1.02.
`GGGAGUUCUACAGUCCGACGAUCUCAAGUCCUGUGCUACACAUCGUAUGUACCGAAUCGGGAAAGGGAAAGGGAAAGGAAAGUAUUAUGUUACGCCGUUCGGAUCUGCACUUCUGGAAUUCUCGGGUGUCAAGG` gave a log2 enrichment of -1.33.

Block 3
Target: RNA binding protein fox-1 homolog 2, RRM domain, GST-SBP tag (RBFOX2, Homo sapiens, UniProt O43251-10, residues 100-194)
Technique: RNA Bind-n-Seq
Form: RNA
Matrix: in vitro
Concentration: 365 nM
Notes: natural RNA segment, single round, ends assumed
Relative to: no-protein control
Reading: higher = stronger binding
Target sequence (chain): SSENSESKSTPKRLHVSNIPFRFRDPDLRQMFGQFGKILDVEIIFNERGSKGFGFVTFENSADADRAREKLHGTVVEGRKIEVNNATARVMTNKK
`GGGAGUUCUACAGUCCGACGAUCCUGUGGCUGUGAGGUCUCAUAUAGCAUAUUUAUAAAUGUUACUCAGGUUUAAAGUAUUUAAAAUAUAGUUACCUAAUUGUAAAUAGGCUGUUAACCAAAAGAGCUUCCCCUGGAAUUCUCGGGUGCCAA` — result for “RBNS enrichment (R)”: 0.309.
Under “RBNS enrichment (R)”, `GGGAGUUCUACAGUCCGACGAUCAAGAAGACAGACUGGUUCAUUGAAUGCCGCCUUAUUUAUUUCUGGUGAGGAUGCAUGCGUGGGGCUGCUGGUGUUUAGAGUGGGGGCUACCCAAUAAAUCACUGAUACUCUGGAAUUCUCGGGUGCCAA` is recorded as 5.5.
Under “RBNS enrichment (R)”, `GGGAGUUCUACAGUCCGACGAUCUGCCUACAGCCCUGUUACCUGAUACCUGUGCUUUAUCCCAGGGGUGGGCAGACCUCUUAACCUUAUAGAUGGUCAGUGCGACCUCUAGUGGUCUCAUGGCGUGUGGCACAUGGAAUUCUCGGGUGCCAA` is recorded as 0.454.
Under “RBNS enrichment (R)”, `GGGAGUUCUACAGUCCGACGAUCGGGAUGAAAAUUGCUUUGAUAUAUAGCAGGUAUAUUGAAGCUAUUCCAUAGCACUUAACUGUAGUGAAUACUGUGUCACCAGUUCUGAAAUCAAUUUAAUGUUUAAUGCAUGGAAUUCUCGGGUGCCAA` is recorded as 4.
For `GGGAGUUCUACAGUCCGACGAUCUCCAGCAAAACUACUGCUUAUUCUCCAAAGAAUAUUGGGAGCUCUCAAUCCUCGGUGAUAUGGGAAAGAGAACUGAGUAUUUGCCCUAUGACUGAGCUUUCUAUAGGAAUUGGAAUUCUCGGGUGCCAA`, “RBNS enrichment (R)” read 0.379.
For `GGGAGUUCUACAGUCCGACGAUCCAGUUGGCAGAAGAAAGGCAGGGCAGUGUGUAGUGGAUGGGCAGCCUGCUGGCAGCCUGCAUAGGCCUAGGGCCUCCAUUCUGCCGUAUAUUGAAGAUUUAAAGACAGUGUGGAAUUCUCGGGUGCCAA`, “RBNS enrichment (R)” read 0.528.
`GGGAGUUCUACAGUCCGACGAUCUUUUCUCUUGACUCCUCCUUUUAGGAUGUCCAGAUGUAAAAAAAAAAAAAAAAAAAAGAAAAAAAGAAAAAAAAAAGAAAACAGCUGCAGUUCAGUACAACUGCUCUUUUUGGAAUUCUCGGGUGCCAA`: “RBNS enrichment (R)” 0.852.
Under “RBNS enrichment (R)”, `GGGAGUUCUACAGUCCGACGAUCUUAGGGCAGUGACUGAGGUGGAAACCCAGCUCUUUAGACAGCUGUCAUCCUAGGAUAGCUUCCUGGAAGCAGAACCAAGAAGCCAGAAGGUUCUUCCUAGGGUGGCCUUGUGGAAUUCUCGGGUGCCAA` is recorded as 0.309.

Block 4
Target: Interferon regulatory factor 5, full length, phosphomimetic (IRF5, Homo sapiens, UniProt Q13568-2, residues 1-514, K96S/S451D/S453D/S456D/S462D)
Technique: protein-binding microarray
Form: double-stranded DNA, one strand shown
Matrix: in vitro
Concentration: 250 nM
Notes: 60-bp whole probe
With: salmon DNA 0.4 mg/ml
Relative to: random background probes
Reading: higher = stronger binding
Constant ends, left off below: GCCTAGCAC … GTCTTGATTCGCTTGACGCTGCTG
`TTAGGTATGGGACTGGGTTAGTGCTAG` gave a log fluorescence of -0.297 z-score.
`TCAGTTTCCATTTTCAGACTGTGCTAG` gave a log fluorescence of 2.64 z-score.
For `TTAGTTCTCGGTCTCGGTTAGTGCTAG`, the log fluorescence was 1.73 z-score.
`GACGGTTTCCTACTGCTGAGGTGCTAG` has a log fluorescence of 0.461 z-score.
With `TTAGATCTCAGGATCGATTAGTGCTAG` the log fluorescence was 0.17 z-score.
`TCATATGTAATCATTCACACTGTGCTA` gave a log fluorescence of 0.872 z-score.
`TTAGGACTGCCTATCCTTTAGTGCTAG` has a log fluorescence of -0.479 z-score.
The log fluorescence of `AACGGTATCGACTTTCGGGACGTGCTA` is reported as 7.07 z-score.
For `GGTATTCGGAACTTTTAGCTGTGCTAG`, the log fluorescence was 0.225 z-score.
With `TTAGGTATCGGGTTGCGGTTAGTGCTA` the log fluorescence was 3.82 z-score.
With `TTAGGTATCGACTTTCGGATAGTGCTA` the log fluorescence was 7.82 z-score.
`ATGACCTCACTGCCTGACACGTGCTAG` gave a log fluorescence of -0.253 z-score.
`GACGGAATGGGTTTCGGGACGTGCTAG` has a log fluorescence of 2.85 z-score.
With `GACGGACTGGACTTTCGGCACGTGCTA` the log fluorescence was 4.59 z-score.
The log fluorescence of `TTAGATATCGGTCTCGATTAGTGCTAG` is reported as 5.21 z-score.
For `GACGACTTCAGACTGGAGACGTGCTAG`, the log fluorescence was -0.411 z-score.
`GACGGTTGCGACTTTCGGGACGTGCTA` has a log fluorescence of 4.92 z-score.
The log fluorescence of `TTGGTTTTCATTATTGCTTCGTGCTAG` is reported as 2.56 z-score.
With `TACGGTATCGGGTATCGGGACGTGCTA` the log fluorescence was 3.38 z-score.

Excerpt of the above (block 4):
The log fluorescence of `AACGGTATCGACTTTCGGGACGTGCTA` is reported as 7.07 z-score.
For `GGTATTCGGAACTTTTAGCTGTGCTAG`, the log fluorescence was 0.225 z-score.
With `TTAGGTATCGGGTTGCGGTTAGTGCTA` the log fluorescence was 3.82 z-score.
With `TTAGGTATCGACTTTCGGATAGTGCTA` the log fluorescence was 7.82 z-score.
`ATGACCTCACTGCCTGACACGTGCTAG` gave a log fluorescence of -0.253 z-score.
